Results pooled from the literature.
Numbered parts are unrelated; each lists some results of a single study. Changes are numbered by the printed parent chain.

Block 1
Target: RNA binding protein fox-1 homolog 2, RRM domain, GST-SBP tag (RBFOX2, Homo sapiens, UniProt O43251-10, residues 100-194)
Technique: RNA Bind-n-Seq
Form: RNA
Sample: in vitro
Concentration: 365 nM
Setting: natural RNA segment, single round, ends assumed
Baseline: no-protein control
Reading: higher = stronger binding
Target sequence (chain): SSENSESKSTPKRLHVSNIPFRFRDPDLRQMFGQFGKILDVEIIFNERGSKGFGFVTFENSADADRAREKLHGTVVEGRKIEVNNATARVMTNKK
`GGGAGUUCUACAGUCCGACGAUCCCCACCCUGGGAGAUGAGGGGGUCCCCAUGUGCUUUUCCAGUUCUUCUGGAAUUGGGGGACCCCCGCCAAAGACUGAGCCCCCUGUCUCCUCCAUCAUUUGGUUUCCUCUUGGAAUUCUCGGGUGCCAA`: “RBNS enrichment (R)” 0.288.
`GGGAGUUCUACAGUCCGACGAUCUAAGCUCCCAAGAUCUAUGUUCCUGGGAGUUUCCCAAACUCAUGAUGGAGUUGGUGACAAGAGCAGAGGAGCAAGAAUCCCUGCAAGCAGUAGACUGGUUUCCACUGGAGUGGAAUUCUCGGGUGCCAA`: “RBNS enrichment (R)” 0.212.
For `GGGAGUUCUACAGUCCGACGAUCCUAAGGUGUCUGAGAGCAGGUACAGAAUAGGAACUUCAGAGGCUUUGUUUAAACGCAAAGCUUUGUAAAAGCCACAAGGUCUGAGCUGAACCCCUCCUUUUUGAACUUACUGGAAUUCUCGGGUGCCAA`, “RBNS enrichment (R)” read 0.339.
`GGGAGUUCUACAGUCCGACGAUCCCAUCACACCUCGGCGGCCUUUAUUUAUUCUGUUCCCCCAGCUCGGCCACUUCUCUGAAGGAGGGCUGGGUUCUGGGCCUGUAUCGAAUAAACACAAACCUGGAUGGCGCUGGAAUUCUCGGGUGCCAA`: “RBNS enrichment (R)” 0.245.
`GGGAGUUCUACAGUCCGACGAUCACAAGUAUCAGCAAAAGGAUUUGUUUUCACUCUGGGAGGAGAGGGUGGAGAAAGCACUUGCUUUCAUCCUCUGGCAUCGGAAACUCCCCUAUGCACUUGAAGAUGGUUUAUGGAAUUCUCGGGUGCCAA`: “RBNS enrichment (R)” 0.712.
Under “RBNS enrichment (R)”, `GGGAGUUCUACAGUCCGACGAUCUUUACCAAAGGUCUAAGGCAUUUGGUUACUUAACCCAAAUAUCCUGAACUGUGCGUAAAGUAAUAGAGAAAAGCUUUAGGGUCUCAAUAGUGUCACCUGUGUAAAUCAAAUGGAAUUCUCGGGUGCCAA` is recorded as 0.248.
`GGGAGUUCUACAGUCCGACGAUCUGGCUUGUAGGAUUUUUAAGAGAGUGUGUCUACAGACAAGCAUUUUCUCUGUAGAGCAGCCACACGUUGUAUAAACAUAAACUGUAUGUGCAGUUAUUUAAAUUUGUUUCUGGAAUUCUCGGGUGCCAA`: “RBNS enrichment (R)” 1.07.
`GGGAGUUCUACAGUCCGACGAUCCCUUGAGCCUGUAGGGUUUUCAUAGUGGACAAAGGACUUAAAUGGUCUUUUAAAACUGGGAUAGUUUUUGGGGAAAGGGCAAAAGAUUAUCAUAUUGAACAUGUAGUAUCUGGAAUUCUCGGGUGCCAA`: “RBNS enrichment (R)” 1.38.
`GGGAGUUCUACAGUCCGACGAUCCCACACACCGUGUACCCAUAGGGCCCCAAAUGUGGGGUCACAUGGUCUUGAAUUUUGUUGGUUACAUAUGCCUUUUUGUUGUUGUUUGUCUUCACUUUUGAUAUAUAAACUGGAAUUCUCGGGUGCCAA` — result for “RBNS enrichment (R)”: 0.62.
Under “RBNS enrichment (R)”, `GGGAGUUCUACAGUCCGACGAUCGAUGCAAUUAUGUAACCAUUAAGCUGAUUCCGAGGCUGGCAGGCUAGGGCCGCCCCUCUGGAAAGGUUCCAUGUGUCUCCAUCCCCAUCCCUUACUCUUCGGGUCAGCUGUGGAAUUCUCGGGUGCCAA` is recorded as 0.302.
`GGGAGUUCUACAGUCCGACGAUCCAUCCAGAAUAGAAUCUGUAACAAGAGACAUGGGACAUAAGCCAGAGAACUCAAACAGCCCUUUAAAGGAGCUCUCGGCAACCAACACUGCCACUCUAUGAGAAAACCCUUGGAAUUCUCGGGUGCCAA`: “RBNS enrichment (R)” 0.297.
Under “RBNS enrichment (R)”, `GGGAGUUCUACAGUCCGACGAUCUUGGGCUUAGCCUUAGUCUCAUUCAAUCUCCAUUAUUACAGCCAUGGGGAAGAGUGAAAGAUAUAAAGUAACCUAAUUAAAUGUAUGGAAUUGCUAUUUUUAUAGCUGAUUGGAAUUCUCGGGUGCCAA` is recorded as 0.326.

Block 2
Target: Sal-like protein 4, full length isoform A (SALL4, Homo sapiens, UniProt Q9UJQ4, residues 1-1053)
Sequence of UniProt Q9UJQ4 (whole entry, looked up): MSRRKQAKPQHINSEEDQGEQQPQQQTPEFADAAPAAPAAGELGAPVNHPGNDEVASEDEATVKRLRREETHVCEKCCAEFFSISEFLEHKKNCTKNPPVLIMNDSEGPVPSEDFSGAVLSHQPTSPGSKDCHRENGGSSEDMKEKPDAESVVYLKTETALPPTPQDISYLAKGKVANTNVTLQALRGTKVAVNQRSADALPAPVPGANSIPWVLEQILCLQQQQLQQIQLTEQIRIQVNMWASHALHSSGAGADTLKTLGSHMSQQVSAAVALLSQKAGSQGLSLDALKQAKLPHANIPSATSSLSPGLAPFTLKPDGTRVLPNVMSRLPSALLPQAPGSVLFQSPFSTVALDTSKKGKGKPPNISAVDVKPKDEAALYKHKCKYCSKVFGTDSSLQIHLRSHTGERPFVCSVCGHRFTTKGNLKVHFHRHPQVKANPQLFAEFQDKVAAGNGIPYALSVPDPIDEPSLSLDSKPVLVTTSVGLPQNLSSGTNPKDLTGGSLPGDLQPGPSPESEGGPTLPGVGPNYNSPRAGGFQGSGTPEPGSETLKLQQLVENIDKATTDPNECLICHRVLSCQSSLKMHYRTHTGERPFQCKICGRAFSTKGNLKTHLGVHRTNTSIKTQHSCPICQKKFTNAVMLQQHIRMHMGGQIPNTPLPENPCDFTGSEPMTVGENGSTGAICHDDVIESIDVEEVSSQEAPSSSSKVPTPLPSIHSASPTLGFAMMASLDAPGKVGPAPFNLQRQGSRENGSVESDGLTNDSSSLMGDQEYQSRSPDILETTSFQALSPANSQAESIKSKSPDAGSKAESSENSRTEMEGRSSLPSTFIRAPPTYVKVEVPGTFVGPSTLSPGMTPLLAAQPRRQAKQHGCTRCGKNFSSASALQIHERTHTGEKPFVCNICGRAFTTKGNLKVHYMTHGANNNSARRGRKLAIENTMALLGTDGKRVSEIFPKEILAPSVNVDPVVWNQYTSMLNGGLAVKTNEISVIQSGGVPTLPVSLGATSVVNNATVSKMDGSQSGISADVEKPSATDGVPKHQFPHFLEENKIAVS
Technique: universal PBM
Form: double-stranded DNA, one strand shown
Sample: in vitro
Concentration: 600 nM
Setting: 8-mer, flanks averaged, mean of replicates
Reading: higher = stronger binding
`ACGCAATC` has an E-score of -0.0238.
The E-score of `TGGAAGAA` is reported as 0.212.
The E-score of `CTCTTGAA` is reported as 0.158.
`CGCGTAGA` gave an E-score of -0.115.
`AGATAAAT` has an E-score of 0.286.
`CAGGCACC` gave an E-score of -0.288.
`GCAAGGGA` has an E-score of -0.0682.
The E-score of `AGCGATGA` is reported as -0.0307.
For `CGCTGATA`, the E-score was 0.0603.
For `GTACCCAC`, the E-score was -0.113.
`AAAAAGGA` has an E-score of 0.00852.
With `CTGATCCA` the E-score was 0.0516.
`CAACTTGC` gave an E-score of -0.0534.
For `GACGTTAC`, the E-score was -0.0043.
With `CCTGATGC` the E-score was -0.059.
With `GCCTTAAC` the E-score was -0.165.
The E-score of `CTATGCAC` is reported as 0.00888.
`CTCAAGTA` gave an E-score of 0.112.
With `CGAACGTA` the E-score was -0.0445.

Block 3
Target: CCND3, cyclin fold, Cln2 fusion (human)
Technique: yeast growth competition, sequencing
Sample: yeast
Setting: strong parent motif
Baseline: not given
Reading: higher = stronger binding
Starting sequence: INSM1 docking peptide (human); PKAIRKLHFEDEV
`H8Y`: “normalised enrichment score” 1.5.
Under “normalised enrichment score”, `K2C` is recorded as 1.63.
`K2N` — result for “normalised enrichment score”: 1.23.
For `H8F`, “normalised enrichment score” read 1.04.
`I4R`: “normalised enrichment score” 1.05.
`F9E` — result for “normalised enrichment score”: 0.178.
Under “normalised enrichment score”, `L7M` is recorded as 0.308.
`I4D` — result for “normalised enrichment score”: -0.00669.
For `L7Q`, “normalised enrichment score” read -0.11.
Under “normalised enrichment score”, `A3S` is recorded as 0.319.
`I4A` — result for “normalised enrichment score”: 2.43.
Under “normalised enrichment score”, `I4V` is recorded as 0.641.
`H8W`: “normalised enrichment score” 0.703.
For `L7R`, “normalised enrichment score” read 0.454.
Under “normalised enrichment score”, `I4M` is recorded as 0.95.
Under “normalised enrichment score”, `D11G` is recorded as 0.183.
For `E10Y`, “normalised enrichment score” read 0.478.
Under “normalised enrichment score”, `L7A` is recorded as 0.21.
Under “normalised enrichment score”, `D11K` is recorded as 0.242.
Under “normalised enrichment score”, `K2G` is recorded as 1.75.
Under “normalised enrichment score”, `H8K` is recorded as 0.922.
`E10G` — result for “normalised enrichment score”: 1.17.
Under “normalised enrichment score”, `E10H` is recorded as 0.65.
`E12K` — result for “normalised enrichment score”: 0.92.
For `H8S`, “normalised enrichment score” read 1.29.

Block 4
Target: Centromere-binding protein 1, full length, His-tagged (CBF1, Saccharomyces cerevisiae, UniProt P17106, residues 1-351)
Sequence of UniProt P17106 (whole entry, looked up): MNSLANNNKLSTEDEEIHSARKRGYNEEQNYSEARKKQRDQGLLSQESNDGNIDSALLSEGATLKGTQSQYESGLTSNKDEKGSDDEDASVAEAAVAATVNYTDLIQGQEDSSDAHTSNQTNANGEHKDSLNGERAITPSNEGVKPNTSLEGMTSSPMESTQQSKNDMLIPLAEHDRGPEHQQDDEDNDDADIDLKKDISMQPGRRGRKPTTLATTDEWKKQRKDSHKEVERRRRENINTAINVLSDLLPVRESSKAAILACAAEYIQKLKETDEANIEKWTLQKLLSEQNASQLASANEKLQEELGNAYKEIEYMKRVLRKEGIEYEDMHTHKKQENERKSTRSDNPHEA
Technique: competition protein-binding microarray
Form: double-stranded DNA, one strand shown
Sample: in vitro
Concentration: 2 µM
Setting: whole 60-bp probe, lowest competitor level
Together with: Pho4 competitor, 0.05 µM
Reading: higher = stronger binding
`AAATTACTAAGTTGAGTAGTGGGTGACGCCGTATGAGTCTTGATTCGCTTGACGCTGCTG` gave a fluorescence intensity of 75.6 a.u.
`AAATTACTAAGTTGACGAGTGGGTGACGCCGTATGAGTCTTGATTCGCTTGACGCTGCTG` has a fluorescence intensity of 67.7 a.u.
The fluorescence intensity of `AAATTACTAAGTTGTTCCGTGGGTGACGCCGTATGAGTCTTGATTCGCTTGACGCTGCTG` is reported as 79.4 a.u.
`TCATATGTAGATAATAAACCTGCTATAAAACTGTCTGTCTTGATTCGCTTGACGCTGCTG` has a fluorescence intensity of 96.5 a.u.
For `GTCCACACATTGTTCCACGTGTAGCTTACCCATGTAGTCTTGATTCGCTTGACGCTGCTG`, the fluorescence intensity was 498 a.u.
With `CCAACACCGTCTTCACCCGTGCAAATGCCTTCTGCGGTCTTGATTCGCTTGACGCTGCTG` the fluorescence intensity was 67.4 a.u.
`TTGGATCTGCAAAATCACATGATTGCCCCAGTACTTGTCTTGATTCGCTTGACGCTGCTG` has a fluorescence intensity of 861 a.u.
The fluorescence intensity of `GAGGGCACTTTCTGGCACATGCGGCCGCAACAAGGAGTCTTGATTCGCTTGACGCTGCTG` is reported as 80.3 a.u.
`CGGGGTTAAGTTTGGTAAGTGGGTGGCTTGCAGCAGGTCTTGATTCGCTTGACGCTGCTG` has a fluorescence intensity of 70.7 a.u.
For `CGTCCTAGTGATTTTCACGTGAGGTCCATGAGGAAGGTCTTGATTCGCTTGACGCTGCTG`, the fluorescence intensity was 959 a.u.
The fluorescence intensity of `CAAACGGTTTGGCCGCTCGTGTCGGCATTGGTCAAAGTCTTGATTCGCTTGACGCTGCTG` is reported as 57.3 a.u.
The fluorescence intensity of `CTTTCCCGATCTTGGTGGGTGGGTGTAGCACATTTGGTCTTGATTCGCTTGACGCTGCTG` is reported as 63.9 a.u.
With `GTCTCCATCTTCTTCCACGGGGGCTAGAACACCATCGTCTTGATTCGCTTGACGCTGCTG` the fluorescence intensity was 90.6 a.u.
With `CATACCCAACCTTGTCACAAGACTTAAGATATTTGTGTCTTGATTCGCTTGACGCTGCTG` the fluorescence intensity was 168 a.u.
With `CCATCTGCAGGACATCACATGCAAGCACTTGAAGCTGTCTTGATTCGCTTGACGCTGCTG` the fluorescence intensity was 395 a.u.
For `TTTCTTCCTCTTGACAGCGTGCAAAGCCATTGATAGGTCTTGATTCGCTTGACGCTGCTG`, the fluorescence intensity was 84.5 a.u.
For `CGGGGTTAAGTTTGAAAAGTGGGTGGCTTGCAGCAGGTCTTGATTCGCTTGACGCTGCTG`, the fluorescence intensity was 58.7 a.u.

Some of these lines once more (block 2):
`CAGGCACC` gave an E-score of -0.288.
`GCAAGGGA` has an E-score of -0.0682.
The E-score of `AGCGATGA` is reported as -0.0307.
For `CGCTGATA`, the E-score was 0.0603.
For `GTACCCAC`, the E-score was -0.113.
`AAAAAGGA` has an E-score of 0.00852.
With `CTGATCCA` the E-score was 0.0516.
`CAACTTGC` gave an E-score of -0.0534.
For `GACGTTAC`, the E-score was -0.0043.
